Experimental data collected from several papers.
Protocols differ between the studies behind these lines. ± gives the spread as reported.
U2AF2: U2AF2 148-342 (Homo sapiens, UniProt P26368)
UniProt P26368, sequence (whole entry, looked up): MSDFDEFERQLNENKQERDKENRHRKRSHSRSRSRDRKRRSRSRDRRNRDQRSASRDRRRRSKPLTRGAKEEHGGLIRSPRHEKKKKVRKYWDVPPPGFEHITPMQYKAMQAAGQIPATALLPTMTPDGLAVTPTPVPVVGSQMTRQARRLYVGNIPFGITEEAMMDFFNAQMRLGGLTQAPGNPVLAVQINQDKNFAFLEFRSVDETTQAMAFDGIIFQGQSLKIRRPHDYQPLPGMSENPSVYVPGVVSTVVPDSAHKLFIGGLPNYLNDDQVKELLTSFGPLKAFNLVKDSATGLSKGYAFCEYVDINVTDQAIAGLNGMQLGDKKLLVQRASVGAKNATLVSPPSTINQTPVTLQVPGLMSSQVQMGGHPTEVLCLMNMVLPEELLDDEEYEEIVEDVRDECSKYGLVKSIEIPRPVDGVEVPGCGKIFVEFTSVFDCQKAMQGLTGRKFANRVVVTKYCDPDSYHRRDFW
CDK5 with p25: Cyclin-dependent kinase 5, with p25 (CDK5, Homo sapiens, UniProt Q00535)
UniProt Q00535, sequence (whole entry, looked up): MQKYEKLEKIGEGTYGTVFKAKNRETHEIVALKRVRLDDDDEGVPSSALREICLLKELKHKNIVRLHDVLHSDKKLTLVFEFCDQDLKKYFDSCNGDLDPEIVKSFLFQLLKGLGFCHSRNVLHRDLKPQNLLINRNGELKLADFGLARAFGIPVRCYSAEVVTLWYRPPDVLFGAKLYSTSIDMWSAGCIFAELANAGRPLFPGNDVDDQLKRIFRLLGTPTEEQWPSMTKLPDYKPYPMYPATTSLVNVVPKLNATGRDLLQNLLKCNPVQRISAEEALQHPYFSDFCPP
B1: chain MSEILPYGEDKMGRFGADPEGSDLSFSCRLQDTNSFFAGNQAKRPPKLGQIGRAKRVVIEDDRIDDVLKGMGEKPPSGV
B2: human MCM4; sequence looked up; chain SSPASTPSRRGSRRGRATPAQTPRSEDARSSPSQRRRGEDSTSTGELQPMPTSPGVDLQSPAAQDVLFSSPPQMHSSAIPLDFDVSSPLTYGTPSSRVEGTPRSGVRGTPVRQRPDLGSAQKGLQVDLQSDGAAAEDIVASEQSLGQKLVIWGTDVNVAACKENFQRFLQRFIDPLAKEEENVGIDITEPLYMQRLGEINVIGEPFLNVNCEHIKSFDKNLYRQLISYPQEVIPTFDMAVNEIFFDRYPDSILEHQIQVRPFNALKTKNMRNLNPEDIDQLITISGMVIRTSQLIPEMQEAFFQCQVCAHTTRVEMDRGRIAEPSVCGRCHTTHSMALIHNRSLFSDKQMIKLQESPEDMPAGQTPHTVILFAHNDLVDKVQPGDRVNVTGIYRAVPIRVNPRVSNVKSVYKTHIDVIHYRKTDAKRLHGLDEEAEQKLFSEKRVELLKELSRKPDIYERLASALAPSIYEHEDIKKGILLQLFGGTRKDFSHTGRGKFRAEINILLCGDPGTSKSQLLQYVYNLVPRGQYTSGKGSSAVGLTAYVMKDPETRQLVLQTGALVLSDNGICCIDEFDKMNESTRSVLHEVMEQQTLSIAKAGIICQLNARTSVLAAANPIESQWNPKKTTIENIQLPHTLLSRFDLIFLLLDPQDEAYDRRLAHHLVALYYQSEEQAEEELLDMAVLKDYIAYAHSTIMPRLSEEASQALIEAYVDMRKIGSSRGMVSAYPRQLESLIRLAEAHAKVRLSNKVEAIDVEEAKRLHREALKQSATDPRTGIVDISILTTGMSATSRKRKEELAEALKKLILSKGKTPALKYQQLFEDIRGQSDIAITKDMFEEALRALADDDFLTVTGKTVRLL
UniProt Q64663, sequence (whole entry, unmodified, looked up): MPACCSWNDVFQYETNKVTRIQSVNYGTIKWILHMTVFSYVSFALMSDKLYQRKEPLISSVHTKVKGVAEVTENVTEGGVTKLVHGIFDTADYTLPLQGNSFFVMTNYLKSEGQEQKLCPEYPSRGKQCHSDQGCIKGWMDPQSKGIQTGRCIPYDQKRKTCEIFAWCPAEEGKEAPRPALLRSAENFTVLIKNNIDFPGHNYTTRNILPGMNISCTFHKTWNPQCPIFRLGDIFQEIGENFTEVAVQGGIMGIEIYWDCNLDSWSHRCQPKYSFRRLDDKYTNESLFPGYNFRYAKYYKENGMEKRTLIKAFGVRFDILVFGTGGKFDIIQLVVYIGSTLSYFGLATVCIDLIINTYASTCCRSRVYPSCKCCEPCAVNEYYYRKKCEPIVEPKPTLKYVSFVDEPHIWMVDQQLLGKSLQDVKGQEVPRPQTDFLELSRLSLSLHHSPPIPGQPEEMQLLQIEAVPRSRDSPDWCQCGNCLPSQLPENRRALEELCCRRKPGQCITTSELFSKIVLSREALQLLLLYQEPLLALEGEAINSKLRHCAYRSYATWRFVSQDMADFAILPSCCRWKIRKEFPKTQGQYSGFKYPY
UniProt Q9UQM7, sequence (whole entry, unmodified, looked up): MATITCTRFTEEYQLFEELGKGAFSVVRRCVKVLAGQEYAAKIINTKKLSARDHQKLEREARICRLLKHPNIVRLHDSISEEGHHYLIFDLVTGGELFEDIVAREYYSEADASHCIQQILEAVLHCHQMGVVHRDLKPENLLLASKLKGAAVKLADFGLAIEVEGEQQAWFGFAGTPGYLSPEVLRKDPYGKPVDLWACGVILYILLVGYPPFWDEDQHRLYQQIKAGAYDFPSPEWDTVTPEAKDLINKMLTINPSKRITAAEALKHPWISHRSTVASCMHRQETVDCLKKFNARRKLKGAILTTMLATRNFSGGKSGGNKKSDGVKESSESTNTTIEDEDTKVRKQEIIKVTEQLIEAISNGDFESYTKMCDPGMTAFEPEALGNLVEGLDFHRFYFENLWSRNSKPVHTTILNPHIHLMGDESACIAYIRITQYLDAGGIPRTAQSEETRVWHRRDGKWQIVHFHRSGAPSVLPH
UniProt P29055, sequence (whole entry, looked up): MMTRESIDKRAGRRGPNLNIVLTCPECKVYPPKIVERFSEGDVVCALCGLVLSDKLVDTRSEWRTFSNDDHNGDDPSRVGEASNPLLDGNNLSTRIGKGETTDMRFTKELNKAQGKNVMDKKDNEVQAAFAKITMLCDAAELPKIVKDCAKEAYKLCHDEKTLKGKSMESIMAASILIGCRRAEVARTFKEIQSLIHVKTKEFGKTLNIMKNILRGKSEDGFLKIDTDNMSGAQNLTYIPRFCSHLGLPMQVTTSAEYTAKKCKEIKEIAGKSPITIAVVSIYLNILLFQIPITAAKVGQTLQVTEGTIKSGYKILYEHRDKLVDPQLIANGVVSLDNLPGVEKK
UniProt Q5ANA3, sequence (whole entry, looked up): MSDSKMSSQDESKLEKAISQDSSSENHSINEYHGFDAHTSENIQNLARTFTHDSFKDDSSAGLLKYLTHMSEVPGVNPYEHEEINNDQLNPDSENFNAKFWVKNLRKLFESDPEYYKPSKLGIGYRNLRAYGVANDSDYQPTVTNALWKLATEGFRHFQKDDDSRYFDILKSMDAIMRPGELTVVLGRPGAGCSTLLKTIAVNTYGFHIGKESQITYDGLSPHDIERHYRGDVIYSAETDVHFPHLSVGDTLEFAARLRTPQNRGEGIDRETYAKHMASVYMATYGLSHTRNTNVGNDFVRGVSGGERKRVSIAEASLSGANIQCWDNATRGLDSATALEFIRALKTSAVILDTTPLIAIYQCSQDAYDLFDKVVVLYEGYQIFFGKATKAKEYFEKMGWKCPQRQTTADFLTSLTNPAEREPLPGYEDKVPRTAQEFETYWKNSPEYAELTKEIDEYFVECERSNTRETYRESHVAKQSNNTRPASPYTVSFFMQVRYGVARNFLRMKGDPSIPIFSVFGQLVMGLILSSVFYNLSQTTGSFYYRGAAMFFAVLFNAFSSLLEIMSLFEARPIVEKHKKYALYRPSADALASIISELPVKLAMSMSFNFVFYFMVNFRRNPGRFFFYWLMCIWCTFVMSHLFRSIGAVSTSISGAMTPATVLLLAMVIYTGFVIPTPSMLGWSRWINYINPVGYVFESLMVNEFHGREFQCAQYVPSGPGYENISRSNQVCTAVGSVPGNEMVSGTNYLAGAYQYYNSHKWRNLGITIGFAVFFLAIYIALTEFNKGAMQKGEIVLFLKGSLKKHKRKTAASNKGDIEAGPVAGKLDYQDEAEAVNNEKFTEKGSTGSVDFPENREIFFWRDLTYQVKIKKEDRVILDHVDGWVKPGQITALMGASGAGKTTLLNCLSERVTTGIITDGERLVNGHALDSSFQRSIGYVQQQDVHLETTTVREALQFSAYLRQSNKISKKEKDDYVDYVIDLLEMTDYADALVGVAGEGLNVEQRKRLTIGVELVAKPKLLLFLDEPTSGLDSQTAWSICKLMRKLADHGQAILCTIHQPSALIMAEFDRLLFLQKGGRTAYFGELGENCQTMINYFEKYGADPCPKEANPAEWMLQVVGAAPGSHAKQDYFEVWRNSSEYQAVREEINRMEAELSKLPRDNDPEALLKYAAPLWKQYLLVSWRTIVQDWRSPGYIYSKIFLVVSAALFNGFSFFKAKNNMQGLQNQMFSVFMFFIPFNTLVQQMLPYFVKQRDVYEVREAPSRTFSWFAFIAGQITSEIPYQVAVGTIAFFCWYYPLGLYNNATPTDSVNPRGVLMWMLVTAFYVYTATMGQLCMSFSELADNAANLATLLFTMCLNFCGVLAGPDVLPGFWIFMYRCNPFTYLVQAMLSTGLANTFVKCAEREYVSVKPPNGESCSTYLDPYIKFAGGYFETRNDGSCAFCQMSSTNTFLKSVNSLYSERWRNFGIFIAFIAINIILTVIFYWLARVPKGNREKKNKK

`AAUCUUUUG (ssRNA)` has a Kd of 13.3 µM (U2AF2; sequencing of bound RNA; RNA; motif only).
With `milbemycin oxime` the fraction bound was 37.9% (CDR1 (Candida albicans, UniProt Q5ANA3); binding, microscale thermophoresis; 156 nM).
For `human ME2 K74H`, the Hill coefficient was 1.25 ± 0.06 (enzyme activity, NADH absorbance; with fumarate 3 mM, together with: L-malate varied).
`human filamin A`: “log2 fold change” 0.05 (CYB5R4 knockout human cells; PP4 interaction, 3xFLAG-PP4C IP-MS; concentration not given; relative to: CYB5R4 KO over parental).
With `BzATP` the normalized current was 1 (P2X purinoceptor 7 (P2rx7, Rattus norvegicus, UniProt Q64663, I214A/Q143A/R125A); ion current, agonist, two-electrode voltage clamp; Xenopus laevis oocytes; 100 µM; relative to: 100 µM ATP current).
With `TCCTGAAGGGGAGCCTATAAAAGGTCCTATCGTCGTCAAGTCAATCGGTCC (dsDNA; 5'-amino-C6 primer)` the Kd was 0.00322 ± 0.00055 µM (SUA7 full length assumed (Saccharomyces cerevisiae, UniProt P29055); array; double-stranded DNA, one strand shown; TFIIB alone).
`GUUGUUUUU (ssRNA)` gave a Kd of 12.7 µM (U2AF2; sequencing of bound RNA; RNA; motif only).
For `KEAFWDRCLSVINLMSSKALQINA`, the activity change was 40% (CDK5 with p25; phosphotransferase activity, radiometric; peptide; concentration not given, 10% DMSO, together with: histone substrate; relative to: p5-WT peptide).
`B1` has a -TΔS of -1.84 kcal/mol (Calcium/calmodulin-dependent protein kinase type II subunit alpha (CAMK2A, Homo sapiens, UniProt Q9UQM7, D135N); binding, ITC; D135N kinase domain).
With `REAFWDRCLSVINLMSSKMLQINA` the activity change was 28% (CDK5 with p25; phosphotransferase activity, radiometric; peptide; concentration not given, 10% DMSO, together with: histone substrate; relative to: p5-WT peptide).
For `Malic enzyme 2 S106K (human)`, the Hill coefficient was 1.06 ± 0.02 (enzyme activity, NADH absorbance; with fumarate 3 mM, together with: L-malate varied).
For `11-deoxycorticosterone`, “rate constant k-1” read 1.79 ± 0.0977 s⁻¹ (CYP11B2 (human); substrate binding, stopped-flow global kinetic fitting; purified enzyme; 3-state conformational selection model, together with: 10-fold excess adrenodoxin).
The Hill coefficient of `human ME2 T60S` is reported as 1.4 ± 0.17 (enzyme activity, NADH absorbance; with fumarate 3 mM, together with: L-malate varied).
For `KEAFWDRCLSVINLMSSKMLEINA`, the activity change was 60% (CDK5 with p25; phosphotransferase activity, radiometric; peptide; concentration not given, 10% DMSO, together with: histone substrate; relative to: p5-WT peptide).
For `B2 (human MCM4)`, “log2 fold change” read -0.54 (CYB5R4 knockout human cells; PP6 interaction, 3xFLAG-PP6C IP-MS; concentration not given; relative to: CYB5R4 KO over parental).
For `KEAFWDRCLSGINLMSSKMLQINA`, the activity change was 54% (CDK5 with p25; phosphotransferase activity, radiometric; peptide; concentration not given, 10% DMSO, together with: histone substrate; relative to: p5-WT peptide).
For `human ME2 F68V`, the activation fold was 1.1 (enzyme activity, activator, NADH absorbance; recombinant enzyme; range over 0 to 5 mM, pH 7.4; relative to: wild type).

Excerpt of the above:
With `TCCTGAAGGGGAGCCTATAAAAGGTCCTATCGTCGTCAAGTCAATCGGTCC (dsDNA; 5'-amino-C6 primer)` the Kd was 0.00322 ± 0.00055 µM (SUA7 full length assumed (Saccharomyces cerevisiae, UniProt P29055); array; double-stranded DNA, one strand shown; TFIIB alone).
`GUUGUUUUU (ssRNA)` gave a Kd of 12.7 µM (U2AF2; sequencing of bound RNA; RNA; motif only).
For `KEAFWDRCLSVINLMSSKALQINA`, the activity change was 40% (CDK5 with p25; phosphotransferase activity, radiometric; peptide; concentration not given, 10% DMSO, together with: histone substrate; relative to: p5-WT peptide).
